# Values quoted from earlier work as cited in several papers.
# Compare with care: the assays were run in different laboratories. ± marks the error that the study gave. Square brackets hold non-standard residues; d marks the D form. Ends that are not written are not given here.
# STAT3 SH2 domain: Signal transducer and activator of transcription 3, SH2 domain (STAT3, Homo sapiens, UniProt P40763)
# Sequence of UniProt P40763 (whole entry, looked up): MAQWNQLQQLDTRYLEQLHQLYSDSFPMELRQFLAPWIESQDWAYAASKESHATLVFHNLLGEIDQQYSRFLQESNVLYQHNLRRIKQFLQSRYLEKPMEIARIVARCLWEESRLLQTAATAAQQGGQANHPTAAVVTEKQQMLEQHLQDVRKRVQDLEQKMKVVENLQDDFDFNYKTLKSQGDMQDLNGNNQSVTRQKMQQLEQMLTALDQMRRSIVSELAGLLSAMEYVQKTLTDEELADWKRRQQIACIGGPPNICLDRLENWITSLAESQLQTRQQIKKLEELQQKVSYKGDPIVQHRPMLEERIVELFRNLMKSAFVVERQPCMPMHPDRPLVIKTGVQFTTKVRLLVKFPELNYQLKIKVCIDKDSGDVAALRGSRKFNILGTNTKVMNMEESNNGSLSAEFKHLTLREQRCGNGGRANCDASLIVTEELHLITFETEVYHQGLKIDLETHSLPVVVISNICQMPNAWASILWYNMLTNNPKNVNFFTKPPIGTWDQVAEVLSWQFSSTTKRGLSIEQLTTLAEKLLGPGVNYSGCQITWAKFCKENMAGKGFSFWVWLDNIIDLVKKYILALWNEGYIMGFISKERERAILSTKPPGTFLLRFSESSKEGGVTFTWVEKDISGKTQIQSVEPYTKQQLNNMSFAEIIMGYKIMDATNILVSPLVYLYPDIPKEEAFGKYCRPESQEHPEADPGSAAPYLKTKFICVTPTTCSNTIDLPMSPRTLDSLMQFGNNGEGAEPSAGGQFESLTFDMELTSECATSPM
# H2-K1 27: H-2 class I histocompatibility antigen, K-B alpha chain, 27 (H2-K1, Mus musculus, UniProt P01901)
# Sequence of UniProt O43603 (whole entry, looked up): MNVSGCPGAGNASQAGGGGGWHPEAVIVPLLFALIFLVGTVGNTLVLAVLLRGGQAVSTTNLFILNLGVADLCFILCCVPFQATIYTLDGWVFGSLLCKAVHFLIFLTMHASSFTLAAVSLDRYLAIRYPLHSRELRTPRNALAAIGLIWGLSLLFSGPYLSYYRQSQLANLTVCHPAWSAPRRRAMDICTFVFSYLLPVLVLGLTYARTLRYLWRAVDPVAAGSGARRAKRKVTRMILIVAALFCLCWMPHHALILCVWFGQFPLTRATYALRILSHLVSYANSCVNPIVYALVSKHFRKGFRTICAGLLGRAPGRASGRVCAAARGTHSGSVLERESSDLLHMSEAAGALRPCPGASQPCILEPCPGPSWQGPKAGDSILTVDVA
# Sequence of UniProt P20789 (whole entry, looked up): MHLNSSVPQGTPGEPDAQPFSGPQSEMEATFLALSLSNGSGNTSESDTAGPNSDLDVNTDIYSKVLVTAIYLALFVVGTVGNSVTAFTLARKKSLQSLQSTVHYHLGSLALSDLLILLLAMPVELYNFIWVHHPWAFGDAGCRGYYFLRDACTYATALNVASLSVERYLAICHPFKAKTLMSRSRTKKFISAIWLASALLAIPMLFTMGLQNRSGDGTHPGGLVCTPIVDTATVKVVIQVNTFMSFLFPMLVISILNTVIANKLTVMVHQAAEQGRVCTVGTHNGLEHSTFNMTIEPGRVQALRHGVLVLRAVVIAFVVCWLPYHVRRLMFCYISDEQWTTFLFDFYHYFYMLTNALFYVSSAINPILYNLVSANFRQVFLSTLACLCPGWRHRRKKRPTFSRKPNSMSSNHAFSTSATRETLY
Substance,target,assay,system,setting,measurement,result
EMRISRIILDFLFLR,"histidine kinase ComD (Streptococcus pneumoniae serotype 2, UniProt A0A0H2ZM50)","reporter gene, agonist","Streptococcus pneumoniae, D39 pcomX::lacZ",,EC50,> 1000 nM
"XLPT (N-p-cinnamoyl, O-carbamoyl-Thr)",STAT3 SH2 domain,"inhibitor, fluorescence polarization",,,IC50,850 ± 85 nM
YTVKYPNL (influenza nucleoprotein 205-212; sequence looked up),H2-K1 27,"binding, competitor",peptide,"purified MHC class I K allele, with: radiolabelled standard peptide",IC50,0.55 nM
[Sar]WTLNSAGYLLGPKKKK-NH2 (N-terminus assumed; SMILES CNCC(=O)N[C@@H](Cc1c[nH]c2ccccc12)C(=O)N[C@H](C(=O)N[C@@H](CC(C)C)C(=O)N[C@@H](CC(N)=O)C(=O)N[C@@H](CO)C(=O)N[C@@H](C)C(=O)NCC(=O)N[C@@H](Cc1ccc(O)cc1)C(=O)N[C@@H](CC(C)C)C(=O)N[C@@H](CC(C)C)C(=O)NCC(=O)N1CCC[C@H]1C(=O)N[C@@H](CCCCN)C(=O)N[C@@H](CCCCN)C(=O)N[C@@H](CCCCN)C(=O)N[C@@H](CCCCN)C(N)=O)[C@@H](C)O; N-terminal sarcosine; Sar = CNCC(=O)O),"GALR2 (Homo sapiens, UniProt O43603)",,,with: europium-labeled galanin,Ki,24 ± 9.9 nM
neurotensin,"Ntsr1 (Rattus norvegicus, UniProt P20789)",agonist,CHO cells expressing Ntsr1,,EC50,3.31 nM
ITIQYNLT (sequence looked up),H2-K1 27,"binding, competitor",peptide,"purified MHC class I K allele, with: radiolabelled standard peptide",IC50,352 nM
"XLPS (N-p-cinnamoyl, O-carbamoyl-Ser, C-benzylamide)",STAT3 SH2 domain,"inhibitor, fluorescence polarization",,,IC50,379 ± 49 nM
